Assay results of several laboratories.
Compare with care: the assays were run in different laboratories.

`CNCC[C@@H](Oc1ccccc1C)c1ccccc1` has an IC50 of 6.31 µM (Plasmodium falciparum; 7G8).
With `Cc1cc(C(=O)NC(C)(C)COc2cccc3c2C(N)=NS(=O)(=O)N3)cc(C)n1` the revertant ratio was 1 (Salmonella typhimurium; Ames test, confirmatory; TA1537; 100 µg/plate; baseline: solvent control).
`CCCC[C@H](NC(C)=O)C(=O)N[C@@H](CO)C(=O)N[C@H](C(=O)N1CCC[C@H]1C(=O)N[C@@H](C)C(=O)N[C@@H](CCCNC(=N)N)C(=O)N[C@@H](CCCNC(=N)N)C(=O)N[C@@H](CCCNC(=N)N)C(=O)N[C@@H](CC(C)C)C(=O)N[C@@H](CCCC)C(=O)N[C@@H](CCCNC(=N)N)C(=O)N[C@@H](CC(=O)O)C(=O)N[C@@H](Cc1ccccc1)C(=O)N[C@@H](CCCCN)C(=O)N[C@@H](CCCNC(=N)N)C(=O)N[C@@H](CC(C)C)C(=O)N[C@@H](CCC(N)=O)C(N)=O)[C@@H](C)O` has a remaining peptide of 2.6% (proteinase K; LC-MS; 25 µM, 81.9 min, pH 7.4).
`CC(=O)N1CCC(C(=O)N2CCN3C(=O)c4cc(-c5ccccc5)ccc4NC(=O)C3C2)CC1` (stereo not shown): “fold increase in revertants” 0.9 (Salmonella typhimurium; TA98; 50 µg/plate; baseline: vehicle).
For `CO[C@H]1C[C@@H]2CC[C@@H](C)[C@@](O)(O2)C(=O)C(=O)N2CCCC[C@H]2C(=O)O[C@H]([C@H](C)C[C@@H]2CC[C@@H](OC(=O)NCCOCCOCCOCCOCCOCCOCCOCCOCCC(=O)N3CCc4cc(Cn5nc(-c6ccc7oc(N)nc7c6)c6c(N)ncnc65)ccc4C3)[C@H](OC)C2)C[C@@H](O)[C@H](C)/C=C(\C)[C@@H](O)[C@@H](OC)C(=O)[C@H](C)C[C@H](C)/C=C/C=C/C=C/1C`, “decreased appetite leading to dose reduction” read 0% (patients with advanced solid tumours; intravenous, 12 mg weekly, grade 3 or higher).
For `COc1cccc(-c2n[nH]c(SCc3ccccn3)n2)c1OC`, “revertant colonies per plate” read 16 (Salmonella typhimurium; Ames test, preincubation; TA98; 1.0 mg/plate, without S9).
`O=c1ccc2ccccc2o1`: “point of departure” 8.29 µM (HepG2; measured: mitochondrial reserve capacity; 1 h, Seahorse mitochondrial toxicity panel).
`Fc1ccc([C@@H]2CCNC[C@H]2COc2ccc3c(c2)OCO3)cc1` gave an IC50 of 6.31 µM (Plasmodium falciparum; 7G8).
With `OCc1ncc2n1-c1ccc(Cl)cc1C(c1ccccc1F)=NC2` the Cmax was 50.5 ng/mL (CYP3A4; substrate; human, plasma; oral, 2 mg midazolam, day 1, cocktail with binimetinib and encorafenib).
With `COc1cc2c(Oc3ccc4[nH]c(C)cc4c3F)ccnc2cc1OCC1(N)CC1` the Hypothyroidism incidence was 100% (paediatric recurrent refractory sarcoma; 10 mg).

Repeated from above:
With `OCc1ncc2n1-c1ccc(Cl)cc1C(c1ccccc1F)=NC2` the Cmax was 50.5 ng/mL (CYP3A4; substrate; human, plasma; oral, 2 mg midazolam, day 1, cocktail with binimetinib and encorafenib).
